Results from different studies.
Each numbered part is a random draw from the data of one study; scales do not carry over between parts. Changes are numbered by the printed parent chain.

Series 1
Target: RNA binding protein fox-1 homolog 2, RRM domain, GST-SBP tag (RBFOX2, Homo sapiens, UniProt O43251-10, residues 100-194)
Method: RNA Bind-n-Seq
Molecule type: RNA
Medium: in vitro
Concentration: 365 nM
Setting: natural RNA segment, single round, ends assumed
Relative to: no-protein control
Reading: higher = stronger binding
Shared flanks, not repeated: GGGAGUUCUACAGUCCGACGAUC … UGGAAUUCUCGGGUGCCAA
Residues (chain): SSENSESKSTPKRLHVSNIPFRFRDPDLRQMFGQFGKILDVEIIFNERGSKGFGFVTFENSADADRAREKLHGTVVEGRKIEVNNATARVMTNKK
Sequence | RBNS enrichment (R)
UAGUUUCACAGUGCUGGCAAUGAAGCCCGUGGCCCACCACGCUAGGCGAGUGCUCUGCCACUGAGUCACGGCCCAGCCCUCUCUCCCUCAUUCUUCUGUUUCCAUACCAA | 0.281
GUUUGUGAGAAGAGCAGAAUCACGGAGACGCAAUCCUGACCACUGACUACAAGAGGAGCAACCCAGAGGAUACACUCCCCUCUCUGGUGUCUGAGGAGUGUGAACCGUUG | 0.382
CACCCACCCCAGCCCUUCCGCUCUGCCUAGCUCUCCCCACCCCCUUCCAUAACCCAAUUCAGGUUUUUAACUCAAUGUAGAUUCUCCAAGCACUUUACAGAUGAGGGUUG | 0.77
UCUGUUCCUCUCCCACGGCAGAUGCCCUCCUCUGUAUGCAAAUCAGCACAGCCUUUAUUGAGCUUUACAACUAACAACCUGAUAGUUGGCAGUUAAUUCACAGUUACAGA | 0.253
UUUGUAGGCAAGCCUCACAAGCCGAGGGACAGGACCGGGCUGUGUGAAAGUGGCUUUUGACAGCUUCUCUCUUUUUGGUGUAAUGUUUUACAUGUCCUGUGUCCUGGGGA | 0.318
ACACUAUGCUUUUGGGUGUUAGACUGAAAUAUUUUAAGAGUAUUUAACCUUUCCAGUAUUCUGUUUCACGCUUAGAUGGAAAUGUAUCUUAUGAAUAGAGACAUAUUAAA | 0.574
CAGGUGGGCUAGCAUCUGUGAGUUUGCCUCGGCUAGCCUUGCUUCCUACAGCCGCCACUGCUCCUCCACCCUGAUCAUCUCACAGGACAGGGUGGACCGGGUUUUUUUUU | 0.4
GCAUCAUGCCACUUGGAACUUAUUGGAACUGGCCCGGGAGACUCUGCAGUCUGCGCCGUUUGAAAACCCUGAGAAAGAGAUGCCACCUCAACUUGAAUCAUGACAGCCCA | 0.723

Series 2
Target: Prothrombin, mature alpha-thrombin (F2, Homo sapiens, UniProt P00734)
Method: aptamer microarray, sandwich
Molecule type: DNA with 2'F-ANA
Medium: in vitro
Concentration: 200 nM
Setting: whole 15-mer aptamer, many near background
Added: Cy3 exosite-II aptamer, 400 nM
Reading: higher = stronger binding
Sequence: GGTTGGTGTGGTTGG
Modification | mean fluorescence intensity
2'F-ANA at 3 4 5 6 7 8 9 12 14 | 75.7 a.u.
2'F-ANA at 3 4 7 8 9 10 11 15 | 258 a.u.
2'F-ANA at 1 5 7 9 10 13 14 15 | 54.7 a.u.
2'F-ANA at 1 4 5 8 12 13 | 86.5 a.u.
2'F-ANA at 2 3 4 5 7 8 9 13 14 | 55.6 a.u.
2'F-ANA at 2 4 5 6 8 9 10 11 15 | 47.6 a.u.
2'F-ANA at 2 7 8 9 10 12 13 14 | 164 a.u.
2'F-ANA at 2 5 6 7 8 13 14 | 52.2 a.u.
2'F-ANA at 1 2 3 6 9 10 15 | 67.5 a.u.
2'F-ANA at 2 11 | 438 a.u.
2'F-ANA at 2 5 6 7 8 9 10 11 12 14 15 | 59.4 a.u.

Series 3
Target: ABI1, truncated, D143A, DHFR fusion (Arabidopsis thaliana)
Method: DHFR PCA, deep sequencing
Medium: yeast
Setting: methotrexate growth selection, single substitutions
Added: (+)-ABA 0.032 µM
Relative to: wild-type fitted maximum
Reading: higher = stronger binding
Parent: PYL1, truncated, DHFR fusion (Arabidopsis thaliana); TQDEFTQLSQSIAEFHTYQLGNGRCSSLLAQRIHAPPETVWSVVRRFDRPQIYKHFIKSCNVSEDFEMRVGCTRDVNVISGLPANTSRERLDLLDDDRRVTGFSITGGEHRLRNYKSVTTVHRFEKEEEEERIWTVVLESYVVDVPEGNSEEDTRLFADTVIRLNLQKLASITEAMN
Substitution | relative binding score
L169E | 0.58%
F56G | 2.19%
W41E | 2.1%
H55A | 21%
I57A | 0.364%
G107M | 3.45%
A13H | 16.2%

Single results of other studies
Molecule | target | assay | system | conditions | how to read | measurement | result
PhoQ, residues 284 288 289 292 302 303 GTAMQF | PhoP, residues 12 14 15 18 19 MHTVL (Escherichia coli, UniProt P23836) | Sort-seq, item: YFP reporter | E. coli | PhoQ-PhoP variant library, added: 10 µM Mg2+ | relative to: high Mg2+ state, higher = stronger signaling | fold induction | 9.68

Excerpt of the above (series 2):
Modification | mean fluorescence intensity
2'F-ANA at 2 5 6 7 8 13 14 | 52.2 a.u.
